Results pooled from the literature.
Each numbered part is a random draw from the data of one study; scales do not carry over between parts. Positions count from the first letter of the parent shown.

Set 1 — technique: DHFR PCA, deep sequencing; matrix: yeast; added: (+)-ABA 710 µM; baseline: wild-type fitted maximum; direction: higher = stronger binding; endpoint: relative binding score
Target: ABI1, truncated, D143A, DHFR fusion (Arabidopsis thaliana)
Setting: methotrexate growth selection, single substitutions
Starting sequence: PYL1, truncated, DHFR fusion (Arabidopsis thaliana); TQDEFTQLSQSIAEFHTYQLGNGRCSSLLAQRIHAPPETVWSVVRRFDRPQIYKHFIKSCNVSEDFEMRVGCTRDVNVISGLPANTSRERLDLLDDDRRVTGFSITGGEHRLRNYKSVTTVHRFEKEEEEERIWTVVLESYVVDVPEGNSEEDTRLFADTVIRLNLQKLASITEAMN; partner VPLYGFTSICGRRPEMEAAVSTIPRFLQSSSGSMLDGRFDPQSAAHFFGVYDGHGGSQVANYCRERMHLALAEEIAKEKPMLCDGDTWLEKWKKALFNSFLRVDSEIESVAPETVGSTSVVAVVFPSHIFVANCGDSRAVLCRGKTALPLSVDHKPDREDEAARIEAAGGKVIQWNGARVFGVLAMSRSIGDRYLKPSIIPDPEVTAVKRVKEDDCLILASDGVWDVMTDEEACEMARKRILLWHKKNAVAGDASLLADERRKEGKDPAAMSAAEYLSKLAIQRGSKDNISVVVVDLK
A170L: 82.6%
D144L: 77.7%
K116W: 21.4%
F157D: 5.96%
E14N: 94.5%
S42D: 103%
I33L: 67.7%
T135K: 0.445%
S27V: 24.1%
T101S: 96.7%
L169G: -2.56%
A30G: 96.1%
N22Y: 99.5%
Q19A: 111%

Set 2 — technique: RNA Bind-n-Seq; molecule type: RNA; matrix: in vitro; concentration: 200 nM; setting: whole 134-nt RNA, ends assumed; added: 150 mM LiCl; baseline: input library; direction: higher = stronger binding; endpoint: log2 enrichment; all molecules: 7-deaza-guanosine replaces G
Target: Ras GTPase-activating protein-binding protein 1, full length (G3BP1, Homo sapiens, UniProt Q13283)
Sequence of UniProt Q13283 (whole entry, looked up): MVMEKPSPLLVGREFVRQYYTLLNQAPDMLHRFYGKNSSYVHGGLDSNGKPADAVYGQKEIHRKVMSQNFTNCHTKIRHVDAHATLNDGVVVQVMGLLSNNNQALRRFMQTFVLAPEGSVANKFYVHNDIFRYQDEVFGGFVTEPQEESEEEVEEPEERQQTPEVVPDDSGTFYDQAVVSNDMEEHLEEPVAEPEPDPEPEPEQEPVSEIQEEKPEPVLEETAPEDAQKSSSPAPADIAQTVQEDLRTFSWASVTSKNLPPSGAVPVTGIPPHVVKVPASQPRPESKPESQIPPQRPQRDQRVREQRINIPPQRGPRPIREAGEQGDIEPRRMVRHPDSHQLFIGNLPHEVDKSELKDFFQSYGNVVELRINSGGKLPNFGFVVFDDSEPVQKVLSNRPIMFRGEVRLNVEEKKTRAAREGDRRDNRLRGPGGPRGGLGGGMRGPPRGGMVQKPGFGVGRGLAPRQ
Shared flanks, not repeated: GGGAGUUCUACAGUCCGACGAUC … UGGAAUUCUCGGGUGUCAAGG
CACAGACAACACGCACCCACACAGACACAGAGGGAAGGGGUUGGGAUGAAAACAGGGUGCACAGCAGGGCGGGGUAGGACCCCAGCCCCU: 0.401
AGUCCUGUGCUACACAUCGUAUGUACCGAAUCGGGGUUUUGGGUUUUGGGUUUUGGGGAAAGUAUUAUGUUACGCCGUUCGGAUCUGCAC: 0.523
GUCCUGUGCUACACAUCGUAUGUACCGAAUCGGGUUUUUUUGGGUUUGGGUUUUUGGGAAAGUAUUAUGUUACGCCGUUCGGAUCUGCAC: -0.705
UCCUGUGCUACACAUCGUAUGUACCGAAUCGGGGAAAAAAGGGAAAAAAGGGAAAAAAGGAAAGUAUUAUGUUACGCCGUUCGGAUCUGC: 0.205
CCUGUGCUACACAUCGUAUGUACCGAAUCGGGUUUUUUUGGGUUUUUUUGGUUUUUUUGGAAAGUAUUAUGUUACGCCGUUCGGAUCUGC: 0.936
CGCAGAAGUCGCGUGUCUAGGUGAGUCGCGGUGGGUCCUCGCUUGCAGUUCAGCGACCACGGUGGGUACCGUUUUUGCGAGGAUUGUUUG: -0.636
ACCAUGCAGGUGGGCAUCUUUGGGAAGUGGGGCAAGGGGGGCAUAGGGAGGGGGGUAACACUUUGGGAACAGGUGGUCCCAGGUCGUUUC: -0.475
ACCAUGCAGGUUGGCAUCUUUGGGAAGUGGGGCAAGGGGGGGAUAGGGAGGGGGGUAACACUUUGGGAACAGGUGGUCCCAGGUCGUUUC: 0.129
GCAGGAAGUAAAAACAAAUGGAAAUGCUUCGGAUAGUGGCAGGGGUGGGGGUUGCUAAGGAAAGGGUGGGAAAAGAGUGGGUAAAGAGUU: 0.226
GCAGGAAGUAAAAACAAAUGGAAAUGCUUCGGAUAGUGGCAGGGGAGGGGGUUGCUAAGGAAAGGGUGGGAUGGGAGUGGGUAAAGAGUU: 0.0359
UGGCCCUGGUUGCAUGCGGGGAGGAAGAGGUGGCCUCAUGGAUCGUGGUGGUCCCGGUGGAAUGUUCAGAGGUGGCCGUGGUGGAGACAG: 0.357

Set 3 — target: ATF2, bZIP domain (human); technique: DHFR protein complementation; matrix: yeast; baseline: wild-type JUN-FOS pair; direction: higher = stronger binding; endpoint: binding fitness
Setting: single substitutions, most at no-binding floor
Starting sequence: JUN, bZIP domain (human); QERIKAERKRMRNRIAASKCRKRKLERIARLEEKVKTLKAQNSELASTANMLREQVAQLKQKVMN; partner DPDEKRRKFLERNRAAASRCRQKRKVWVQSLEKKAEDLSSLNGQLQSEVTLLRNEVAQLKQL
E44Y: -1.43 natural log
Q55L: -1.43 natural log
Q58P: -1.51 natural log
A29C: -1.45 natural log
K39H: -1.3 natural log
A46M: -1.31 natural log
Q55I: -1.48 natural log
L31S: -1.44 natural log
L38E: -1.54 natural log
R53G: -1.5 natural log
K34M: -1.23 natural log
N42V: -1.48 natural log
T37I: -1.38 natural log
V35G: -1.46 natural log
T48D: -1.54 natural log
E32Q: -1.41 natural log
L52R: -1.5 natural log
L38S: -1.46 natural log
T48W: -1.52 natural log
A29I: -1.4 natural log
L38W: -1.49 natural log
V56G: -1.51 natural log
V35F: -1.46 natural log
L45N: -1.53 natural log
V35E: -1.52 natural log

Set 4 — technique: protein binding microarray; molecule type: double-stranded DNA, one strand shown; matrix: in vitro; concentration: not given; baseline: not given; direction: higher = stronger binding; endpoint: E-score
Target: Histone acetyltransferase KAT6A, winged helix 2, GST fusion (KAT6A, Homo sapiens, UniProt Q92794, residues 85-181)
Setting: 8-mer, flanks averaged, mean of 2 arrays, mostly near background
Residues (chain): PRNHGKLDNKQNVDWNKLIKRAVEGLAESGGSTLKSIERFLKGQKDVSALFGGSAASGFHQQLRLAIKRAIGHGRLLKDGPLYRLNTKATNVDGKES
ATACTCCG: 0.0973
AGTCTGAA: -0.0621
AGAAGCGA: 0.0479
CACCCAAC: -0.0859
CAAGAGGC: -0.0256
CACACGTC: -0.18
TAGTTCGA: -0.00609
AGCAATAA: -5e-05
CTAACCGA: -0.0899
CAGAATTA: 0.0641
GCGCCCTA: 0.0421
ACTCTATC: -0.0937
ACGGCGCC: 0.192
CCTTTCAG: 0.036
AGTGTGGC: 0.0929
AACGGCAT: 0.0645
CTCCTGCA: -0.113
CCATGGCA: -0.0148
ACGGTATG: -0.0646
AGGGGTGA: -0.199
AGCGATCC: -0.0772
CGACCGGA: -0.00105
CCTCCCCG: 0.19

Set 5 — technique: protein-binding microarray; molecule type: double-stranded DNA, one strand shown; matrix: in vitro; concentration: 2540 nM top; setting: 60-bp whole probe; added: salmon DNA 0.4 mg/ml; baseline: random background probes; direction: higher = stronger binding; endpoint: fitted relative affinity; shared flanks, not repeated: GCCTAGCAC … GTCTTGATTCGCTTGACGCTGCTG
Target: Interferon regulatory factor 3, full length, phosphomimetic (IRF3, Homo sapiens, UniProt Q14653, residues 1-427, S386D/S396D/S398D/S402D/T404D/S405D)
Construct (chain): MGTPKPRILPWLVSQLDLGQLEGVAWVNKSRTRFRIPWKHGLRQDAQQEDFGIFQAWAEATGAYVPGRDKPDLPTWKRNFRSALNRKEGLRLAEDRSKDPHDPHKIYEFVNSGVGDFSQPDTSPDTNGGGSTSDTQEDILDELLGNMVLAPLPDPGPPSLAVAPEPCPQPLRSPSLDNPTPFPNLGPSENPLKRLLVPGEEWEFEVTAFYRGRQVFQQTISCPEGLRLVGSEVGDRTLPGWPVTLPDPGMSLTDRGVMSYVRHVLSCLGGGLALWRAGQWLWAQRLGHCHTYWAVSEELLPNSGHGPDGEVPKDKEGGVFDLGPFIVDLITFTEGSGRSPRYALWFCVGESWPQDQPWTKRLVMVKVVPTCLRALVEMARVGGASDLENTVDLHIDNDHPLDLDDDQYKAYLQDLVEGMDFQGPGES
TCAACTCGCCTTTTTTGACTGTGCTAG: 1.5 z-score
GGCTCCTCCCCGCTTCTGGAGTGCTAG: -0.509 z-score
GACGGTCTCCTTATCATGACGTGCTAG: 2.79 z-score
TCAGATTTCGGGTATCGATTAGTGCTA: 1.9 z-score
TTAGGTATCTGGTATCGGTTAGTGCTA: 1.69 z-score
GACGATCTCAGAATCGAGACGTGCTAG: 0.721 z-score
TTAGGTCTGGGGTATCGGTTAGTGCTA: -0.0345 z-score
GACGGTATCGGTCTCGGGGCGTGCTAG: 4.62 z-score
GACGGACTGGAGTATCGGGACGTGCTA: -0.267 z-score
TTACATTTCAGTATCGATTAGTGCTAG: 2.59 z-score
TTAGGTCTCGGTCTCTGTTAGTGCTAG: 1.07 z-score
GACGGTCTCGGTTTCGGGAGGTGCTAG: 3.54 z-score
ACAGGAGTGTTTCTCAGTTTGTGCTAG: 0.728 z-score
TCATATACACACTATAGTACTGTGCTA: 0.691 z-score
TTTGATTTCGGGTTTCGATTAGTGCTA: 3.7 z-score
ATTGCTTCCTCTTTCACTGCGTGCTAG: 1.48 z-score
GACGTTTCCCTTTTCCTGACGTGCTAG: 8.88 z-score
GCTTCTATGTAGTTGATGAAGTGCTAG: 0.131 z-score

Set 6 — target: CCNA2, cyclin fold, Cln2 fusion (human); technique: yeast growth competition, sequencing; matrix: yeast; setting: strong parent motif; baseline: not given; direction: higher = stronger binding; endpoint: normalised enrichment score
Starting sequence: E2F1 docking peptide (human); PPVKRRLDLETDH
PKVKRRLDLETDH [P2K]: 4.66
PPVMRRLDLETDH [K4M]: 2.26
PPVKRRSDLETDH [L7S]: -0.171
PPVGRRLDLETDH [K4G]: 1.04
PPVKYRLDLETDH [R5Y]: 0.557
PPVKRRLDLYTDH [E10Y]: 3.86
PPVKRRLDLESDH [T11S]: 4.8
PPVKDRLDLETDH [R5D]: 0.316
PPVKRRLDLETHH [D12H]: 3.91
PPVKRNLDLETDH [R6N]: 0.444
PPYKRRLDLETDH [V3Y]: 0.67
PPVKRLLDLETDH [R6L]: 0.968
RPVKRRLDLETDH [P1R]: 4.86
PPVKRRLDLERDH [T11R]: 3.54
PPVKQRLDLETDH [R5Q]: 0.145
PPVKRFLDLETDH [R6F]: 1.88
PPVKRRLDLETTH [D12T]: 3.91
PPVKRRLDLETNH [D12N]: 3.81
PPVKTRLDLETDH [R5T]: 0.197
PPVKRRLDLCTDH [E10C]: 4.14
PPVKRRLTLETDH [D8T]: 4.26
